Experimental data collected from several papers.
Protocols differ between the studies behind these lines. ± gives the spread as reported.
B1: SACOL1063 (Staphylococcus aureus, UniProt Q5HH30); chain MFSKVNNQKMLEDCFYIRKKVFVEEQGVPEESEIDEYESESIHLIGYDNGQPVATARIRPINETTVKIERVAVMKSHRGQGMGRMLMQAVESLAKDEGFYVATMNAQCHAIPFYESLNFKMRGNIFLEEGIEHIEMTKKLTSLN
B2: enzyme (Bacillus pumilus, UniProt A8FFI9); chain EARSIAWSVDEFFKNREGTFVIQEVKEKSPWVYNKKRAKERFAPQSTFKVANALIGLQTGAVRDEYDIKYWDGVKREIDNWNRDHTLGSGMRDSVVWYYQAMARDIGEERMNHWVKAIHYGNKDISGGIDQFWLSSTLRISPIEQVRFLKQLYEETLPFDLKNMRTVKRMMVQEEEKHATLYGKTGSGSDIGWYVGFIKHEHKTYILATNIKGTGIEAKDITYRILKKYHLMEASV
B3: protein (Sinorhizobium meliloti, UniProt Q92LZ4); chain MSRPRILVPGKINPRVLERLPEMFETVRIERADAALVTADMRDVSGIAVSGKLPVPLMDAFPSLEIVANFGVGYDGVDVSRAAARGIVVTNTPDVLTEEVADTAIGLLLNTLRLLPQAEQWLRQGRWVREGAFPLSPLSLRGRTVGLFGLGRIGLAIARRLEAFGVSIAYHTRTPREGLGFTYHPTLVGMAEAVDTLIVIVPGTASTLKAVNADVLSALGPKGVLINVGRGSTVDEAALVTALQNGTIAGAGLDVFENEPNVPEALLSFPNVSLLPHVASASVVTRNAMSDLVVDNLKAWFSTGEALTPVAETPFRRRAIQN
B4: UGT1A9 (Homo sapiens, UniProt O60656); chain GKLLVVPMDGSHWFTMRSVVEKLILRGHEVVVVMPEVSWQLGRSLNCTVKTYSTSYTLEDLDREFKAFAHAQWKAQVRSIYSLLMGSYNDIFDLFFSNCRSLFKDKKLVEYLKESSFDAVFLDPFDNCGLIVAKYFSLPSVVFARGILCHYLEEGAQCPAPLSYVPRILLGFSDAMTFKERVRNHIMHLEEHLLCHRFFKNALEIASEILQTPVTEYDLYSHTSIWLLRTDFVLDYPKPVMPNMIFIGGINCHQGKPLPMEFEAYINASGEHGIVVFSLGSMVSEIPEKKAMAIADALGKIPQTVLWRYTGTRPSNLANNTILVKWLPQNDLLGHPMTRAFITHAGSHGVYESICNGVPMVMMPLFGDQMDNAKRMETKGAGVTLNVLEMTSEDLENALKAVINDKSYKENIMRLSSLHKDRPVEPLDLAVFWVEFVMRHKGAPHLRPAAHDLTWYQYHSLDVIGFLLAVVLTVAFITFKCCAYGYRKCLGKKGRVKKAHKSKTH
B5: TRM10 E111A (Saccharomyces cerevisiae, UniProt Q12400); chain MSNDEINQNEEKVKRTPPLPPVPEGMSKKQWKKMCKRQRWEENKAKYNAERRVKKKRLRHERSAKIQEYIDRGEEVPQELIREPRINVNQTDSGIEIILDCSFDELMNDKAIVSLSNQVTRAYSANRRANHFAEIKVAPFDKRLKQRFETTLKNTNYENWNHFKFLPDDKIMFGDEHISKDKIVYLTADTEEKLEKLEPGMRYIVGGIVDKNRYKELCLKKAQKMGIPTRRLPIDEYINLEGRRVLTTTHVVQLMLKYFDDHNWKNAFESVLPPRKLDAEAKSASSSPAPKDT

B1 (SACOL1063)
K0.5 (C[C@@H](O)[C@H](N)C(=O)O; steady-state kinetics; pH 8, 37 °C, Hill coefficient, added: AcCoA 1 mM, L-Thr 0-10 mM): 11600 µM

Cc1ccc(N2C(=O)c3ccccc3NC23C(=O)N(C)c2ccc([N+](=O)[O-])cc23)cc1 (stereo not shown)
logD (shake flask; aqueous buffer; pH 7.4): 2.7

C[C@]12CC[C@@H]3c4ccc(O)cc4CC[C@H]3[C@@H]1C[C@@H](O)[C@@H]2O
maximum serum concentration (GC-MS; breast cancer women on NSAI, serum; vaginal, 0.03 mg, 3 h, day 0): 0.16 ng/mL

Cc1cc(Nc2cc3ncccc3c(N[C@@H]3C[C@H]4CC[C@@H](C3)N4CCC#N)n2)n[nH]1
Cmax (pregnant rat, maternal plasma; oral, 100 mg/kg/day, gestation day 6): 5.99 ng/mL

CCOc1nc2cccc(C(=O)O)c2n1Cc1ccc(-c2ccccc2-c2nnn[nH]2)cc1
thermodynamic solubility (shake-flask; Captex 355; 37 °C): 0.01 mg/g

CS(=O)(=O)OC[C@H](O)[C@@H]1CO1
concentration (Wistar rat, female, plasma; intraperitoneal, 500 mg/kg of treosulfan, 4 h): 5.2 µM

COc1ccc2[nH]c([S+]([O-])Cc3ncc(C)c(OC)c3C)nc2c1 (stereo not shown)
t1/2 (UHPLC-MS/MS, noncompartmental; healthy Chinese volunteers, CYP2C19 *1/*2, plasma; oral, 20 mg single dose): 1.12 ± 0.62 h

Cn1c(-c2ccc(C(N)=O)cc2F)nnc1C(C)(C)Oc1c(F)cc(Cl)cc1F
Tmax median (healthy young Japanese subjects, plasma; oral, 20 mg once daily, day 18, 14 days dosing): 1.5 h

B2 (enzyme)
kcat (CO/N=C(\C(=O)N[C@@H]1C(=O)N2C(C(=O)O)=C(COC(C)=O)CS[C@H]12)c1csc(N)n1; steady-state kinetics; pH 7): > 0.7 s⁻¹

CCCCCCCCCCCCCCCCCCOP(=O)([O-])OC1CC[N+](C)(C)CC1
AUC(0-inf) (rhesus monkey, male, plasma; oral, 7 mg/kg, single dose, mean of 3): 1570 µg·h/mL

C/C=C/C=C/C=C\CC/C=C/C(=O)NCC(C)(C)O
recovery (rat, small intestine site 4 contents; oral, dose not given, 2 h, β-glucuronidase treated; relative to: ingested amount): 0.02%

CCc1cn([C@@H]2O[C@H](CO)[C@@H](O)[C@H]2O)c2ncnc(C)c12
compound remaining (metabolic stability; mouse, liver microsomes; 1 h): 106%

C[C@@H](N)c1cc(Cl)ccc1Cn1c(=S)[nH]c(=O)c2[nH]ccc21
AUC(tau) (healthy Chinese volunteers, plasma; oral, 5 mg once daily, day 10, geometric mean): 0.608 µM·h

carbamazepine
dissolved amount (USP paddle dissolution; simulated gastric fluid; 30 min, 37 °C, 75 rpm): 13.6%

O=C(O)CCCCCCC(=O)O
total plasma concentration ratio (human hemodialysis patients, plasma; pre-treatment; relative to: hemodialysis over normal subjects): 6

CCCC(C)N1CCC(N(Cc2ccccc2)C(=O)Nc2ccc(I)cc2)CC1 (stereo not shown)
intrinsic clearance (CD-1 female mouse, liver microsomes; 0.8 µM): 120 mL/min/kg

N[C@@H](CC(=O)N1CCn2c(nnc2C(F)(F)F)C1)Cc1cc(F)c(F)cc1F
AUC(0-2 h) (healthy Korean subjects, plasma; oral, 100 mg single dose, ABCB1 G2677T/A GT): 0.478 ± 0.213 µg·h/mL

Nc1ncn([C@H]2C[C@H](O)[C@@H](CO)O2)c(=O)n1
AUC(0-180) (male CD-1 mice, plasma; oral, 167 mg/kg THU + 1.0 mg/kg, day 1): 6.66 µM·h

RBRBRBRBRBRBRBRBB (PMO conjugate)
viability (pLuc705; MTT; peptide; 2 to 60 µM, 24 h, 10% serum, D-arginine variant): no effect

SIYNFEKL
IFN-gamma+ cells (OT-I CD8+ T cells; peptide; concentration not given, primed 5 d, OVA257 100 ng/mL restimulation, added: no TGF-beta1): 50.2%

Cc1cc(C)c2c(c1)[C@@H](N(Cc1cc(C(F)(F)F)cc(C(F)(F)F)c1)c1nnn(C)n1)CCCN2C[C@H]1CC[C@H](C(=O)O)CC1
patients below quantitation limit (dyslipidemic patients, plasma; oral, 4 to 6 weeks after last dose; relative to: patients): 92%

CCCC[C@H](NC(C)=O)C(=O)N[C@H]1CCC(=O)NC[C@@H](C(=O)N[C@@H](Cc2c[nH]c3ccccc23)C(N)=O)NC(=O)[C@H](CCCNC(=N)N)NC(=O)[C@@H](Cc2ccccc2)NC(=O)[C@H](Cc2c[nH]cn2)NC1=O
AUC(0-last) (beagle dog, female, plasma; subcutaneous, 8.0 mg/kg daily, day 28): 1.25 µg·h/mL

68Ga-DOTA
K1 (PET; Yucatan minipig, lean, pancreas; iv, 1.2 MBq/kg, 1-tissue compartment model): 1.57 ± 0.67 mL/cm³/min

CCCC[C@@H]1NC(=O)[C@@H](NC(=O)[C@H](CCC(=O)O)NC(=O)CNC(=O)CN2CCN(CC(=O)O)CCN(CC(=O)O)CCN(CC(=O)O)CC2)CCCCNC(=O)C[C@@H](C(N)=O)NC(=O)[C@H](C(C)C)NC(=O)[C@@H]2CCCN2C(=O)[C@H](CCCNC(=N)N)NC(=O)CNC(=O)[C@H](Cc2c[nH]c3ccccc23)NC(=O)[C@H](CCCNC(=N)N)NC(=O)[C@@H](Cc2ccccc2)NC(=O)[C@H](Cc2c[nH]cn2)NC(=O)[C@H](CCC(=O)O)NC1=O [indium-111 labelled]
tissue uptake (normal C57 mice, lung; intravenous, 0.037 MBq, 2 h): 0.08 ± 0.08 %ID/g

O=C(Nc1ccc([N+](=O)[O-])cc1Cl)c1cc(Cl)ccc1O
thermodynamic solubility (shake-flask; Captex 355; 37 °C): 2.82 ± 0.11 mg/g

Cc1ccc(NC(=O)c2ccc(CN3CCN(C)CC3)cc2)cc1Nc1nccc(-c2cncc(-c3oncc3C)c2)n1
half-life (Parkinson's disease patients, plasma; oral, 100 mg once daily, day 7, 7-day dosing, mean): 24.6 h

CC1(C)C(/C=C/C=C/C=C/C=C2/N(CCC(=O)O)c3ccc4ccccc4c3C2(C)C)=[N+](CCC(=O)[O-])c2ccc3ccccc3c21
extravasation half-life (NIR fluorescence imaging; mouse, ear; intravenous): 3.86 min

O=C1c2c(O)cc(O)cc2O[C@H](c2cc(O)c(O)c(O)c2)[C@H]1O
Papp A→B (mass spectrometry; Caco-2; 40 µM, 6 h): 17.3 ×10⁻⁶ cm/s

CC(C)NCC(O)COc1cccc2ccccc12 (stereo not shown)
QTc change (male Hartley guinea pig, anaesthetized; intravenous infusion, 3 mg/kg, 10 min infusion; relative to: baseline): 1.1 ± 1.4%

CC1(C)Oc2cc3oc(=O)ccc3cc2C[C@@H]1O
organ weight (CD-1 mouse, male, spleen; oral gavage, 80 mg/kg daily, 4 weeks): 0.09 ± 0.01 g

COc1cccc2c1C(=O)c1c(O)c3c(c(O)c1C2=O)C[C@@](O)(C(=O)CO)C[C@@H]3O[C@H]1C[C@H](N)[C@H](O)[C@H](C)O1
Cmax (mouse, E0771 tumour-bearing, tumor; intravenous, 92 µmol/kg): 21.4 µM

CC(C)(CC(=O)N1CCCC1)NCC(=O)N1C[C@@H](F)C[C@H]1C#N
Cmax at steady state (Chinese type 2 diabetes patients, plasma; oral, 100 mg once daily, multiple doses): 256 ng/mL

CC(C)=CCC[C@](C)(O[C@@H]1O[C@H](CO[C@@H]2O[C@H](CO)[C@@H](O)[C@H](O)[C@H]2O)[C@@H](O)[C@H](O)[C@H]1O)[C@H]1CC[C@]2(C)[C@@H]1[C@H](O)C[C@@H]1[C@@]3(C)CC[C@H](O[C@@H]4O[C@H](CO)[C@@H](O)[C@H](O)[C@H]4O[C@@H]4O[C@H](CO)[C@@H](O)[C@H](O)[C@H]4O)C(C)(C)[C@@H]3CC[C@]12C
recovery (Sprague Dawley rat, male, small intestine site 4 contents; oral, 0.3 g/kg TU-100, 2 h, no β-glucuronidase treatment; relative to: ingested amount): 42.3%

CCOC(=O)C1=C(C)NC(C)=C(C(=O)OC)C1c1cccc(Cl)c1Cl (stereo not shown)
thermodynamic solubility (shake-flask; soybean oil; 37 °C): 9.59 ± 0.67 mg/g

des-acyl ghrelin (human)
tissue/serum ratio (wild-type mice, olfactory bulb; intravenous, dose not given, 10 min, vascular space corrected): 16.1 µL/g

B3 (protein)
K0.5 (O=CC(=O)O; steady-state kinetics; pH 7.5, 25 °C, NaCl 150 mM, added: NADPH 0.4 mM): 80000 µM

Cc1nc2cccc(OCC(C)(C)C(=O)NC(C)C)c2c(N)c1C(=O)O
Tmax (Sprague-Dawley rat (both sexes), plasma; dietary, 30 mg/kg/day, day 7): 1.5 h

CC(C)NCC(O)c1ccc(NS(C)(=O)=O)cc1 (racemic)
QTc change (male Hartley guinea pig, anaesthetized; intravenous infusion, 3 mg/kg, 10 min infusion; relative to: baseline): 10.9 ± 1.8%

Cc1cc(=O)n(-c2ccccc2)n1C
peak placental transfer (perfused human placental cotyledon; 531 µM, 10 min, 36.5 °C, maternal to fetal): 35%

CC[C@H](C)[C@@H]1NC(=O)[C@H](Cc2ccc(O)cc2)NC(=O)[C@@H](N)CSSC[C@@H](C(=O)N2CCC[C@H]2C(=O)N[C@@H](CC(C)C)C(=O)NCC(N)=O)NC(=O)[C@H](CC(N)=O)NC(=O)[C@H](CCC(N)=O)NC1=O
peak urinary excretion (human, urine; intranasal, 100 IU): 227 pg/mg creatinine

CNCc1ccc(-c2[nH]c3cc(F)cc4c3c2CCNC4=O)cc1
AUC(0-t) (human patients, plasma; oral, 360 mg twice daily, day 15, steady state, arithmetic mean): 9.43 µg·h/mL

Cc1cc(-c2cc(OC(=O)c3ccccc3)ccc2Cl)cc2nnc(Nc3ccc(OCCN4CCCC4)cc3)nc12
concentration (Long Evans rat, retina; topical, 1%, 24 h): 0.007 µM

B4 (UGT1A9)
Vmax/Km (COc1ccc(-c2oc3ccc(OC)cc3c(=O)c2O)cc1; steady-state kinetics; pH 7.4, 37 °C): 51000 µL/min/mg

B5 (TRM10 E111A)
K0.5 (C[S+](CC[C@H](N)C(=O)O)C[C@H]1O[C@@H](n2cnc3c(N)ncnc32)[C@H](O)[C@@H]1O; steady-state kinetics; pH 8, 30 °C): 1.4 µM

CC(C)[C@H](N)C(=O)OCC1(CO)C/C1=C/n1cnc2c(=O)[nH]c(N)nc21.Cl (mixture of isomers)
Vd (refers to: prodrug; Swiss-Webster mouse (male), plasma; intravenous, 24.6 mg/kg, one-compartment model): 93.5 L/kg

COc1ccc2c(c1OC)C(=O)O[C@@H]2[C@H]1c2c(cc3c(c2OC)OCO3)CCN1C
thermodynamic solubility (shake-flask; soybean oil; 37 °C): 1.91 ± 0.15 mg/g

CCCCCOC(=O)Nc1nc(=O)n([C@@H]2O[C@H](C)[C@@H](O)[C@H]2O)cc1F
efflux ratio (Caco-2; 4 h): > 2

CCCSc1ccc2nc(NC(=O)OC)[nH]c2c1
thermodynamic solubility (shake-flask; Captex 355; 37 °C): 0.39 ± 0.05 mg/g

O=C(CCC(C(=O)[O-])N1CCN(C(CCC(=O)NCC(O)CO)C(=O)[O-])Cc2cccc(n2)CN(C(CCC(=O)NCC(O)CO)C(=O)[O-])CC1)NCC(O)CO.[Gd+3] (stereo not shown)
Vdss (Beagle dog, plasma; intravenous bolus, 0.2 mmol Gd/kg): 0.239 ± 0.008 L/kg
